Results gathered from unrelated publications.
Each line is one published result; not all experiments were run side by side.
Target: MAP kinase-activated protein kinase 2 (MAPKAPK2, Homo sapiens, UniProt P49137)
Sequence of UniProt P49137 (whole entry, unmodified, looked up): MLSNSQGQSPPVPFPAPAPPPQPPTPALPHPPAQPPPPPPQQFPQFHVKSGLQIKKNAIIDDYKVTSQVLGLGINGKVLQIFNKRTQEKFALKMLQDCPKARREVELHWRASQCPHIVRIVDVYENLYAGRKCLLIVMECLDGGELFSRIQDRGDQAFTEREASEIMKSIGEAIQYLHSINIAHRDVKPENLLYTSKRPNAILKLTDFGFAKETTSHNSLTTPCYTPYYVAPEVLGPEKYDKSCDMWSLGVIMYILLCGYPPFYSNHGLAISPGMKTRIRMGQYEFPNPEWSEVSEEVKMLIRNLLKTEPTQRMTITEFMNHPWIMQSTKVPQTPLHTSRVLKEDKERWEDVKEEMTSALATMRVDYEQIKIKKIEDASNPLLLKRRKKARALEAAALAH

Compound | assay | setting | scale | measurement | value
O=C(O)CCC(=O)c1cccc(NS(=O)(=O)c2c[nH]c3ncccc23)c1 | kinase activity, radiometric | 10 µM |  | remaining activity | 101%
CN1CCN(Cc2ccc(NC(=O)c3cccc(C#Cc4cnc(N)c5ncccc45)c3)cc2C(F)(F)F)CC1 | cell-free assay, competition with immobilised ligand | 50 nM |  | remaining binding | 100%
C=C1CCCCCCCCCC(CO)C1=O (stereo not drawn) | cell-free assay, competition with immobilised ligand | 10 µM |  | remaining binding | 100%
CC(C)=CC1OC(C)(C)C2C=C3C(=O)C(Cl)=CC(O)C3C3C(O)C4OC4C(=O)C132 (stereo not drawn) | cell-free assay, competition with immobilised ligand | 10 µM |  | remaining binding | 96%
C=CC(=O)Nc1cccc(-c2cnc3[nH]cc(C(=O)NC(C)(C)C)c3n2)c1 | enzyme activity, inhibitor | 0.1 µM |  | inhibition | 6%
Cc1[nH]nc2c1N=C(c1ccccc1Cl)c1cnc(N3CCOCC3)cc1N2 | enzyme activity, inhibitor | 0.5 µM |  | inhibition | 17.3%
Cc1cnc2nc1Nc1cccc(c1)COC/C=C/COCc1cc(ccc1OCCN1CCOCC1)N2 | binding | 0.1 µM |  | remaining binding | 88%
Cc1ccc(C)c(-c2ccc3nc(NC(=O)C4CCCCC4)nn3c2)c1 | enzyme activity, Dundee kinase panel | 10 µM |  | remaining activity | 102%
CNC(=O)C[C@H](Cc1ccc(C#N)cc1)NC(=O)c1cc(-c2ccc(CN[C@H](C)c3ccc(C)cc3)o2)ccc1Cl | enzyme activity, inhibitor | 1 µM |  | activity vs control | 111%
COc1c(OCCCN2CCOCC2)ccc2c1N=C(NC(=O)c1cnc(N)nc1)N1CCN=C21 | kinase activity, inhibitor | 1 µM | baseline: untreated control | remaining activity | 102%
CNC1C[S+]2CC[S+]3CC[S+](C1)[Ru-4]321([N]=C=S)[n]2c3ccc(OC)cc3c3c4c(c5cc(F)c[n+]1c5c32)C(=O)NC4=O (stereo not drawn) | KinomeScan | 0.1 µM | baseline: untreated | remaining binding | 90%
C=CC(=O)N1CCc2ccc(-n3c(=O)ccc4cnc5ccc(-c6cnn(C)c6)cc5c43)cc21 | KINOMEscan | 1 µM | baseline: DMSO control | remaining binding | 100%
NC(=O)[C@@H](O)C[C@H]1CCc2sc3ncnc(O[C@H]4CC[C@H](N5CCOCC5)CC4)c3c21 | enzyme activity, inhibitor | 10 µM |  | inhibition | 1%
COc1ccc(NC(=O)Nc2ccc3c(c2)C(=O)N(C(C)CO)CC(C)C(CN(C)Cc2ccc4c(c2)OCO4)O3)cc1 (stereo not drawn) | binding, competition with immobilised ligand | 10 µM |  | remaining binding | 80%
COc1ccc(O)cc1-c1c[nH]c2ncc(-c3cncc(C(=O)N(C)C)c3)cc12 | binding, competition with immobilised ligand | 0.2 µM |  | inhibition | -0.41%
Cc1cccc(-c2ccc3nc(NC(=O)C4CCOCC4)nn3c2)c1 | enzyme activity, Dundee kinase panel | 10 µM |  | remaining activity | 93%
Nc1ncc2c(n1)-c1c([nH]c3ccc(C4=CCOCC4)cc13)CCC2 | binding, competition with immobilised ligand | 1 µM |  | remaining binding | 100%
C=CC(=O)N1CCCC(n2c(=O)c3ncccc3n(Cc3ccc(Oc4ccccc4)cc3)c2=O)C1 (stereo not drawn) | cell-free assay, competition with immobilised ligand | 1 µM |  | remaining binding | 100%
COc1cc(Nc2nc(C)cc(-c3cnn4nc(OC)ccc34)n2)cc(C(F)(F)F)c1 | inhibitor | 1 µM | baseline: control | remaining activity | 52%
Cc1cccc(O[C@H]2CCC[C@@H](C(C)CNCc3ccncc3)C2)c1 (relative stereo) | enzyme activity, inhibitor | 10 µM |  | inhibition | -12%
COc1ccc(C(=O)/C=C/c2ccccc2-c2c[nH]c3ccc(C#N)cc23)c(O)c1 | enzyme activity, inhibitor | 20 µM |  | inhibition | -10%
